Published values from different studies.
Parts stem from different laboratories: compare values within a part only. Changes are numbered by the printed parent chain.

Series 1
Target: Interferon regulatory factor 5, full length, phosphomimetic (IRF5, Homo sapiens, UniProt Q13568-2, residues 1-514, S451D/S453D/S456D/S462D)
Technique: protein-binding microarray
Molecule type: double-stranded DNA, one strand shown
Medium: in vitro
Tested at: 940 nM top
Notes: 60-bp whole probe
Together with: salmon DNA 0.4 mg/ml
Relative to: random background probes
Reading: higher = stronger binding
All sequences stand within: GCCTAGCAC … GTCTTGATTCGCTTGACGCTGCTG
For `TTAGGTTTTGGGTATCGGTTAGTGCTA`, “fitted relative affinity” read 4.54 z-score.
For `GACGGTCTCGGTTTCGCGACGTGCTAG`, “fitted relative affinity” read 5.21 z-score.
`TTAGGTCTCCGACTGCTTTAGTGCTAG` — result for “fitted relative affinity”: -0.237 z-score.
For `GACGGGATCCTTATCCTGACGTGCTAG`, “fitted relative affinity” read -0.456 z-score.
For `TTAGAACTGGGTATCGGTTAGTGCTAG`, “fitted relative affinity” read 3.72 z-score.
`GACGGTCTCGGTCACGGGACGTGCTAG` — result for “fitted relative affinity”: 3.6 z-score.
`GACGCACTGGACTTTCGGGACGTGCTA` — result for “fitted relative affinity”: 0.408 z-score.
`TTAGATCTCCGTCTCGATTAGTGCTAG`: “fitted relative affinity” 1.67 z-score.
`TTAGGTTTCCTTATCCTTTAGTGCTAG` — result for “fitted relative affinity”: 2.08 z-score.

Series 2
Target: Centromere-binding protein 1, full length, N-terminal tag (CBF1, Saccharomyces cerevisiae, UniProt P17106, residues 1-351)
UniProt P17106, sequence (whole entry, looked up): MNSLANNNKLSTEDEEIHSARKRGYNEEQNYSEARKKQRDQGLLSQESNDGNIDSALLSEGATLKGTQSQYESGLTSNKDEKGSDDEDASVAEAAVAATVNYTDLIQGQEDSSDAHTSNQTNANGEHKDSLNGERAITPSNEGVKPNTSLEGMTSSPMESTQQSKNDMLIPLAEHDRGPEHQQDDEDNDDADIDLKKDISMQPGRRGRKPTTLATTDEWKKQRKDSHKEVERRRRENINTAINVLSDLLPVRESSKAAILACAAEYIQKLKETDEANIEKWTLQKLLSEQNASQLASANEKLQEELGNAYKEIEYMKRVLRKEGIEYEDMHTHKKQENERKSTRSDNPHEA
Technique: protein-binding microarray
Molecule type: double-stranded DNA, one strand shown
Medium: in vitro
Tested at: 0.8 µM
Notes: whole 60-bp probe, no competitor
Reading: higher = stronger binding
`CTATATCCACCAACGCACGTATACTTCTTCACTTTCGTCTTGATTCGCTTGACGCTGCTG` gave a fluorescence intensity of 517 a.u.
`CCTAACTACTATAATCAGGTGTAATAGCTTCGTACAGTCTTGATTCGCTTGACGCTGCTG` has a fluorescence intensity of 661 a.u.
`GAATAGTAGGTATACGTGACAAATATAAGCGTATAGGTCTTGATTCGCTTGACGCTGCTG` gave a fluorescence intensity of 905 a.u.
`CTACTCTGCTGATTGGACGTGGGGTCGTACTATTTCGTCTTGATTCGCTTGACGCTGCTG` has a fluorescence intensity of 538 a.u.
With `CTAGCACTGAAAAACCACGCCACTGAGTGCGGATTCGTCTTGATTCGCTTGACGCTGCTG` the fluorescence intensity was 504 a.u.
For `GAAATATATCTCATTCATCTGATTCTGTGAGGTTAGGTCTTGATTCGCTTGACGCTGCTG`, the fluorescence intensity was 521 a.u.
`CTAGGTCTTCTTCATCACGCCCATATTCATTGTTTCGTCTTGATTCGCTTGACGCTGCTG` gave a fluorescence intensity of 663 a.u.
For `GAATGAGATTTAATGCACGTTATGTTTCGTTCTTAGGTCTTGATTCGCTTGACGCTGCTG`, the fluorescence intensity was 642 a.u.
For `GAATTTCTCACGCTGATGATGATGACAATTTTATAGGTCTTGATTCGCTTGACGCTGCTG`, the fluorescence intensity was 581 a.u.
For `CCTAACTACTATATATTCGTGGTATAGCTTCGTACAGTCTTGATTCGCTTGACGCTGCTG`, the fluorescence intensity was 518 a.u.

Series 3
Target: CCNF, cyclin fold, Cln2 fusion (human)
Technique: yeast growth competition, sequencing
Medium: yeast
Notes: weak parent motif
Relative to: not given
Reading: higher = stronger binding
Parent: MASTL docking peptide (human); PMIAKNLMCELDE
Under “normalised enrichment score”, `PMIAKNLKCELDE [M8K]` is recorded as 0.096.
`PMVAKNLMCELDE [I3V]` — result for “normalised enrichment score”: -0.0892.
`PMIAKNLMCEFDE [L11F]` — result for “normalised enrichment score”: -0.152.
Under “normalised enrichment score”, `PMIAKILMCELDE [N6I]` is recorded as 0.358.
For `PMIANNLMCELDE [K5N]`, “normalised enrichment score” read -0.146.

Further values, each from its own experiment
`PhoQ, residues 284 288 289 292 302 303 SACGEM` has a fold induction of 1.69 (PhoP, residues 12 14 15 18 19 NQFFI (Escherichia coli, UniProt P23836); Sort-seq, measured: YFP reporter; E. coli; PhoQ-PhoP variant library, together with: 10 µM Mg2+; relative to: high Mg2+ state, higher = stronger signaling).

Repeated from above (series 1):
For `TTAGAACTGGGTATCGGTTAGTGCTAG`, “fitted relative affinity” read 3.72 z-score.
`GACGGTCTCGGTCACGGGACGTGCTAG` — result for “fitted relative affinity”: 3.6 z-score.
